Published values gathered from unrelated publications.
Protocols differ between the studies behind these lines. “And” joins repeats or separate records; there may be more than shown. ± gives the spread as reported.
PTK6: Protein-tyrosine kinase 6 (PTK6, Homo sapiens, UniProt Q13882)
Chain of UniProt Q9UM07 (whole entry, looked up): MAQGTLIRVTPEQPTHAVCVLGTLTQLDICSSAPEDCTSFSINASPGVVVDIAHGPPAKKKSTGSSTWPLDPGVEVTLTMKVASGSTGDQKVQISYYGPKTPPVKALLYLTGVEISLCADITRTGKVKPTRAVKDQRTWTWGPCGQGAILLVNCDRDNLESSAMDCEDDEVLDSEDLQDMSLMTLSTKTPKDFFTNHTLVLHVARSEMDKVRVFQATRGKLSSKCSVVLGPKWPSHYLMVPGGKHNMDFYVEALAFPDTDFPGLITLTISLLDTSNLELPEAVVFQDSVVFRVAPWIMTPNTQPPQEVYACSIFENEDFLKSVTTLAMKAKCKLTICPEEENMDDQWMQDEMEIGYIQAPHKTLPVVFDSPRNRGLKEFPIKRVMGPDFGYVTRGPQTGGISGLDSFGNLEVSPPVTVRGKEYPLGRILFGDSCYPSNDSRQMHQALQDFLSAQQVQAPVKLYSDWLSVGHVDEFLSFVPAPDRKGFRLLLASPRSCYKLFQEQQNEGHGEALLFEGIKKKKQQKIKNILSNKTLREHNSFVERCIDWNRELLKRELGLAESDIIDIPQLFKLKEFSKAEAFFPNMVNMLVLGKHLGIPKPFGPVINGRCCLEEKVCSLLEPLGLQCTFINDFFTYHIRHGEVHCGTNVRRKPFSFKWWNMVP
Chain of UniProt Q13882 (whole entry, looked up): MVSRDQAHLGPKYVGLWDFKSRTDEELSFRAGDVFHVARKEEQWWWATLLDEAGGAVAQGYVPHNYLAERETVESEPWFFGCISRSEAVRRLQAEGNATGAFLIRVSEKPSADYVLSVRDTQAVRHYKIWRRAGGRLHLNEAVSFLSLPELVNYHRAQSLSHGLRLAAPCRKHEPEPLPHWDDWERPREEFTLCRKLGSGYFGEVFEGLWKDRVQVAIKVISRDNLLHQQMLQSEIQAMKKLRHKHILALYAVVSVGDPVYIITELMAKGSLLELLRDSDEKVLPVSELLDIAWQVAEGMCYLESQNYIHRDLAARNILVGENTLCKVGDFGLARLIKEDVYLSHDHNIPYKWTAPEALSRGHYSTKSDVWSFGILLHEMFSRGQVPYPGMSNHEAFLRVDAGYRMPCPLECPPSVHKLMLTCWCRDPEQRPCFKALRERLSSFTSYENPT
Chain of UniProt Q8IW41 (whole entry, looked up): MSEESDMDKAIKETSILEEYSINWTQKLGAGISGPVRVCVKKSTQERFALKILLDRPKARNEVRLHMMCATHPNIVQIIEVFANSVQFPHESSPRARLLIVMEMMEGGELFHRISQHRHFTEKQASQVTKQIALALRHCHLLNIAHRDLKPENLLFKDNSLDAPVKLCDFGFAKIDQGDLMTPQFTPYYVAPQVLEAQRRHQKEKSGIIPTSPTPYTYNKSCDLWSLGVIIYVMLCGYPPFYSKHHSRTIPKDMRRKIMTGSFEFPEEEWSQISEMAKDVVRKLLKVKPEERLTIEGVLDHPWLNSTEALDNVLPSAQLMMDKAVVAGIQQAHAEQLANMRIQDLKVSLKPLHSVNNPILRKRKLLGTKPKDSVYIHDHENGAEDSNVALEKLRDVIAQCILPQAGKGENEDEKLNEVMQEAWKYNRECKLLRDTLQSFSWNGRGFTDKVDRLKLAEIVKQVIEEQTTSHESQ
Chain of UniProt O13828 (whole entry, looked up): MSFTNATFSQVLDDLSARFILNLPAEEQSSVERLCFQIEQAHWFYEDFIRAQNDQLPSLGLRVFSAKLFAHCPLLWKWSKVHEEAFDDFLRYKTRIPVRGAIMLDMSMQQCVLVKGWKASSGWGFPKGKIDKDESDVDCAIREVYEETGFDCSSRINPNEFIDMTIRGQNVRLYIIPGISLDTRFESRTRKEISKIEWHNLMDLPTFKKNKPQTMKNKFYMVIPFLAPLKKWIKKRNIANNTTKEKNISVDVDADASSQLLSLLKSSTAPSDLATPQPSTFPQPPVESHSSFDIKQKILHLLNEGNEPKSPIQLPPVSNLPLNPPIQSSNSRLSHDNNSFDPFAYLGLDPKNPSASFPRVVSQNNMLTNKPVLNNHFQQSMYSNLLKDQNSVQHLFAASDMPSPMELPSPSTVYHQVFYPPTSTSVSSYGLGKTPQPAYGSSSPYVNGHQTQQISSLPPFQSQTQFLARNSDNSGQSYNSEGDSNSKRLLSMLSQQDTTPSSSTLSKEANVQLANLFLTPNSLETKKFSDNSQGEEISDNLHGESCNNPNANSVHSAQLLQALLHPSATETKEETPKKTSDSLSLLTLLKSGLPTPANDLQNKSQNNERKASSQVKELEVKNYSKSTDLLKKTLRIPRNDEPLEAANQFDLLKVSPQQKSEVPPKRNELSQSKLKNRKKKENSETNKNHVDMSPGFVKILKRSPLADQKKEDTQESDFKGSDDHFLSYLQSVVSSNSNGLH
Chain of UniProt O94804 (whole entry, looked up): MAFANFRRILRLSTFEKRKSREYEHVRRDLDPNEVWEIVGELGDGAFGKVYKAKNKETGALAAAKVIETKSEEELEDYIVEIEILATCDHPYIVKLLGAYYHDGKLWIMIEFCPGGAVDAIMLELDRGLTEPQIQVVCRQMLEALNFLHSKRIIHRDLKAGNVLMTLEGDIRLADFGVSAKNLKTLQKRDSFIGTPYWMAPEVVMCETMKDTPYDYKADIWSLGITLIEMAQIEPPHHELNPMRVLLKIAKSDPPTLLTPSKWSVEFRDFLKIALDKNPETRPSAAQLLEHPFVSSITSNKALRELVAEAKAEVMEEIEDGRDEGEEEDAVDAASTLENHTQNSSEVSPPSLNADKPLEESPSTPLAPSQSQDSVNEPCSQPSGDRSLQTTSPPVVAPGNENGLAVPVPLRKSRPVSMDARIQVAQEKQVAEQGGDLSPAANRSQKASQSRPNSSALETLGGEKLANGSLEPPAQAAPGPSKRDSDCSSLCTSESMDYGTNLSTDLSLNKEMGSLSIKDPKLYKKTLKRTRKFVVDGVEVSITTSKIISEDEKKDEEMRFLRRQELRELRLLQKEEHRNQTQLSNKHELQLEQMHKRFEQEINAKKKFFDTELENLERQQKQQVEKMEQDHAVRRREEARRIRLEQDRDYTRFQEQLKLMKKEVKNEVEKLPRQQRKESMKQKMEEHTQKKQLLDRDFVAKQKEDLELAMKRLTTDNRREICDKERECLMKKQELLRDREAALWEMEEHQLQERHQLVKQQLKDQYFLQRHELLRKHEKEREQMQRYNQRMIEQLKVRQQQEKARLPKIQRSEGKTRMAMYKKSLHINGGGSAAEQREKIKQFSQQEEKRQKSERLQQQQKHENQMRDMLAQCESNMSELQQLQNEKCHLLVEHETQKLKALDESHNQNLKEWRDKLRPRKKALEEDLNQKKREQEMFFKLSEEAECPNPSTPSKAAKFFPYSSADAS
Chain of UniProt Q93009 (whole entry, looked up): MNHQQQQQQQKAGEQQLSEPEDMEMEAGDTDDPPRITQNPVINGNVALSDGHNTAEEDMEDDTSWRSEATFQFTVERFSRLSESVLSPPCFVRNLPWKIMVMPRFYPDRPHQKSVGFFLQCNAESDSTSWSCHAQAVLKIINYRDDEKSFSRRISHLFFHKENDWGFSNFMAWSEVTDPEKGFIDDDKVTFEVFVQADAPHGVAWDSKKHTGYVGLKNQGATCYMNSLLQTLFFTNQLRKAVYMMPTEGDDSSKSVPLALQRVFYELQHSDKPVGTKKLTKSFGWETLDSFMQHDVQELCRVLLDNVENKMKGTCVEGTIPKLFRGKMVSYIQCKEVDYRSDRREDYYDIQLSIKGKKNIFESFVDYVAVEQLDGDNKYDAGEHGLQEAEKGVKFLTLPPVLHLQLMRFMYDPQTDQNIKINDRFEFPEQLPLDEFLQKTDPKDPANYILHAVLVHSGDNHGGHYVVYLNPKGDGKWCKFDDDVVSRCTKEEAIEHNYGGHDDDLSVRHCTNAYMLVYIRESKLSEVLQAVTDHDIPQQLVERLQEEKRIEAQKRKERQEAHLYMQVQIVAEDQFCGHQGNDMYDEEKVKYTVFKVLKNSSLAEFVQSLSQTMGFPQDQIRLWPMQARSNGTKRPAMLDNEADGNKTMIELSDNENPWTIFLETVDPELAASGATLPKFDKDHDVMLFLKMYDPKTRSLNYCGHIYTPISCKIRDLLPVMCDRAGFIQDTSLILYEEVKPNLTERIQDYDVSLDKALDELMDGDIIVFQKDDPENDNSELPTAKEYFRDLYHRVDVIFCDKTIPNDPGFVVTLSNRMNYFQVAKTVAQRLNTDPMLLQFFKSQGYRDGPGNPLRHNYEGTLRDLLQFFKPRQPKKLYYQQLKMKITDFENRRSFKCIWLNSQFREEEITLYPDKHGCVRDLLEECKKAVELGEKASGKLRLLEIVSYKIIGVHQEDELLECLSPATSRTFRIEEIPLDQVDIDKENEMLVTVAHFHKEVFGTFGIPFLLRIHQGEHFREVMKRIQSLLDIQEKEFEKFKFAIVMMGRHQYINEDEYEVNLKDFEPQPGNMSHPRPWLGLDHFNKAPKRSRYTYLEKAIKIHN
Chain of UniProt P51956 (whole entry, looked up): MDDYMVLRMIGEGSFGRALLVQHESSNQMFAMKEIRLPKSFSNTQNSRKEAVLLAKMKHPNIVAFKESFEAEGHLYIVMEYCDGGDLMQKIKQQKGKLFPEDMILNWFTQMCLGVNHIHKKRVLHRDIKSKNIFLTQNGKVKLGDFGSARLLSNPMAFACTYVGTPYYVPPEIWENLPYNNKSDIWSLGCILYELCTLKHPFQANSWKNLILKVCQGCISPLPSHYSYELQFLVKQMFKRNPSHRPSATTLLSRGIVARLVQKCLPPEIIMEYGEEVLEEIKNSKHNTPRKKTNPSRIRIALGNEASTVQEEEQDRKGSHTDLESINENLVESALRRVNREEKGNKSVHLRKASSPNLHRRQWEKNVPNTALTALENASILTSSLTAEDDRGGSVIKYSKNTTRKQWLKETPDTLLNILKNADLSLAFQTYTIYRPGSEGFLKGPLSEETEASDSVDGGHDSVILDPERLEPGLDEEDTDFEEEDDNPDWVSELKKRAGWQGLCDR

| Structure (SMILES) | tested on | assay | test system | conditions | how to read | endpoint | result |
| --- | --- | --- | --- | --- | --- | --- | --- |
| CN(C)[C@H]1C[C@@]23CC[C@@]4(O2)C(=CC[C@]2(C)[C@@H](c5ccc6ccncc6c5)CC[C@H]24)C=C3[C@@H](O)[C@@H]1O | NEK3 (Homo sapiens, UniProt P51956) | ATP probe labelling, inhibitor, KiNativ profiling | – | 1 µM | – | inhibition | 3.3% |
| O=C1NC(=O)c2c1c1cc(F)c[n+]3c1c1c2c2cc(O)ccc2[n]1[Ru-4]312([N]=C=S)[S+]3CC[S+]1CC[S+]2CC3 (stereo not drawn) | STK10 (Homo sapiens, UniProt O94804) | enzyme activity | – | 100 nM, human enzyme, added: 10 µM ATP | reference: untreated | remaining activity | 86% |
| O=C(Cc1ccc(Cl)c(Cl)c1)N1CCN(C(=O)C2(O)CCCC2)[C@@H]2COC[C@H](N3CCCC3)[C@H]21 (single isomer, unassigned) | OPRK1 (Homo sapiens, UniProt P41145) | β-arrestin-2 recruitment, agonist | U2OS | 1.5 h | reference: U-69593 maximal response | Emax | 31% |
| N[C@H](C(=O)N1CCCC1)C1CCN(c2nccc3c(-c4ncc(Cl)cc4Cl)cccc23)CC1 | PADI4 (Homo sapiens, UniProt Q9UM07) | enzyme activity | – | 0.03932 µM, added: Ca2+ 0.25 mM | – | kcat | 0.392 s⁻¹ and 0.41 s⁻¹ |
| O=C1NC2(CC2)COc2ncc(F)cc2[C@H]2COCCN2c2ccn3ncc1c3n2 | – | – | Sprague-Dawley rat, male, serum | oral, 2.5 mg/kg/day, 4 weeks daily, end of treatment | – | pancreatic amylase activity | 2040 ± 320 U/L |
| C[n+]1cn([C@@H]2O[C@H](COP(=O)([S-])OP(=O)(O)OP(=O)(O)OP(=O)([S-])OC[C@H]3O[C@@H](n4c[n+](C)c5c(O)nc(N)nc54)[C@H](O)[C@@H]3O)[C@@H](O)[C@H]2O)c2nc(N)nc(O)c21 (stereo partly drawn) | mRNA decapping complex subunit 2 (dcp2, Schizosaccharomyces pombe, UniProt O13828) | single-turnover kinetics | 29-nt native-capped RNA substrate | 0.125 mM | – | kmax | 0.39 ± 0.2 min⁻¹ |
| CS(C)(=O)=Nc1ccc(-c2ccc(-c3nc4cc(O[C@@H]5CO[C@H]6[C@@H]5OC[C@H]6O)[nH]c4cc3F)cc2)cc1 | PTK6 | enzyme activity, inhibitor | – | 10 µM | – | inhibition | -22% |
| CC(C)[C@H]1NC(=O)C[C@H]2/C=C/CCSSC[C@@H](NC1=O)C(=O)N[C@H](Cc1cccc3ccccc13)C(=O)NCC(=O)O2 | MAPKAPK5 (Homo sapiens, UniProt Q8IW41) | enzyme activity, inhibitor | – | 10 µM | – | inhibition | -1.1% |
| CCn1nc(Cl)c2c1-c1cnc(N)c(c1)O[C@H](C)c1cc(F)ccc1-c1nn(C)cc1C2 | PTK6 | kinase activity, inhibitor | – | – | reference: IC50 PTK6 over IC50 ALK | selectivity ratio | 83 fold |
| Cc1ccc(N2CC3CCC(C2)N3C)cc1C(=O)N[C@H](C)c1cc(-c2cnn(C)c2)nc2ccccc12 | USP7 (Homo sapiens, UniProt Q93009) | enzyme activity | – | 10 µM | – | remaining activity | 99.2% |
| Nc1ccc(/C=C/C(=O)N2CCc3c(oc4c(-c5ccc(F)cc5)cc(-c5ccc(C(=O)N6CCC(F)(F)CC6)cn5)cc34)C2)cn1 | SRC (Homo sapiens, UniProt P12931) | binding, competition with immobilised ligand | – | 1 µM | – | remaining binding | 100% |
| OB(O)c1cnn(-c2cc(Cl)ncn2)c1 | Chymotrypsinogen A (Bos taurus, UniProt P00766) | pNA substrate hydrolysis | – | – | reference: Ki protease over Ki AmpC | selectivity ratio | 9900 |
| COc1ccc(-c2csc(NN=C(C=Cc3ccc(Cl)cc3)C(=O)O)n2)cc1 | ache (Electrophorus electricus, UniProt O42275) | Ellman | – | – | reference: IC50 BChE over IC50 AChE | selectivity index | 11.7 |
| Cc1cc(C(=O)Nc2nc3cccc(C)c3n2[C@H]2CCCCN(C(=O)/C=C/CN(C)C)C2)ccn1 | Trypanosoma brucei | propidium iodide flow cytometry | bloodstream form | concentration not given, 48 h | – | cells in G1 phase | 30.5% |
| CC(C)C[C@H](NC(=O)[C@H]1O[C@@H]1C(=O)O)C(=O)NCCCCN=C(N)N | Cathepsin B (CTSB, Homo sapiens, UniProt P07858) | – | – | – | – | Hill slope | -1.35 |
| COc1ccccc1-c1n[nH]c2nc(NC3CCN(C(=O)Cc4ccc(F)cc4F)CC3)ncc12 | – | bead binding, competition bead pull-down, item: LINJ.26.1220 | Leishmania donovani axenic amastigote extract | 10 µM | reference: vehicle | relative abundance | 0.91 |
| CC(C)(C)C(=O)OCOP(=O)(OCOC(=O)C(C)(C)C)C1CCCN(O)C1=O (stereo not drawn) | HCC 2998 | – | – | – | – | GI50 | 446 nM |
| CC[C@H](C)[C@H](NC(=O)[C@H](CO)NC(=O)[C@H](Cc1ccc(O)cc1)NC(=O)[C@H](Cc1ccc(O)cc1)NC(=O)[C@H](CC(N)=O)NC(=O)CNC(=O)[C@H](CO)NC(=O)[C@H](Cc1ccc(O)cc1)NC(=O)[C@H](CO)NC(=O)[C@H](CO)NC(=O)[C@H](CC(N)=O)NC(=O)COCCOCCNC(=O)CN1CCN(CC(=O)O)CCN(CC(=O)O)CCN(CC(=O)O)CC1)C(=O)N[C@@H](CC(C)C)C(N)=O [copper-64 labelled] | – | dynamic PET | tamoxifen-induced PDAC mouse model, pancreas | 1.4 min, CLDN4-expressing tumours | – | maximum pancreas uptake | 24.6 %IA/cc |

Repeated from above:
| Structure (SMILES) | tested on | assay | test system | conditions | how to read | endpoint | result |
| --- | --- | --- | --- | --- | --- | --- | --- |
| CS(C)(=O)=Nc1ccc(-c2ccc(-c3nc4cc(O[C@@H]5CO[C@H]6[C@@H]5OC[C@H]6O)[nH]c4cc3F)cc2)cc1 | PTK6 | enzyme activity, inhibitor | – | 10 µM | – | inhibition | -22% |
| CC(C)[C@H]1NC(=O)C[C@H]2/C=C/CCSSC[C@@H](NC1=O)C(=O)N[C@H](Cc1cccc3ccccc13)C(=O)NCC(=O)O2 | MAPKAPK5 (Homo sapiens, UniProt Q8IW41) | enzyme activity, inhibitor | – | 10 µM | – | inhibition | -1.1% |
| CCn1nc(Cl)c2c1-c1cnc(N)c(c1)O[C@H](C)c1cc(F)ccc1-c1nn(C)cc1C2 | PTK6 | kinase activity, inhibitor | – | – | reference: IC50 PTK6 over IC50 ALK | selectivity ratio | 83 fold |
